Measured values from different studies.
A part holds a random share of what one study measured. Changes are numbered by the printed parent chain.

Sample 1
Target: PABPC1L2, full length, GST fusion (mouse, UniProt A0ABA7IW68)
Technique: RNAcompete
Form: RNA
Matrix: in vitro
Tested at: 20 nM
Setting: 7-mer, probes averaged, single round
Reference: mean of 7-mers
Direction: higher = stronger binding
Quantity: 7-mer Z-score
Residues (chain): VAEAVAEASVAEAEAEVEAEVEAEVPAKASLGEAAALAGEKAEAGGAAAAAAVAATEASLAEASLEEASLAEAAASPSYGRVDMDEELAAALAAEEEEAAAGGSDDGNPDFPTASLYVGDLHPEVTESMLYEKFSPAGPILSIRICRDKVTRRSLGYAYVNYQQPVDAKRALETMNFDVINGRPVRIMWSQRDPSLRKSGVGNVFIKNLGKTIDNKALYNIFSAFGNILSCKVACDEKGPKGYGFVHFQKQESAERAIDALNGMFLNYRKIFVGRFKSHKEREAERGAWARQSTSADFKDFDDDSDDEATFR
UUUGGUC: -0.393
AGAAUGA: -0.164
UGGUGAU: -0.135
AAGAGGA: 0.559
CUCUCCC: -0.354
CUGUAAU: -0.237
AGUCGUG: -0.275
AGACCGA: -0.0301
UCCGCAU: -0.287
GAUGUUU: -0.418
GCACUAC: -0.228
CUGUAUC: -0.315
UGUGUAC: -0.266
AGCCCAA: 0.0968
CCUCCAU: -0.238
AACACCA: 0.336
GCUCACU: -0.266
CAAUGAU: 0.0152
GGAUAAG: 0.128

Sample 2
Target: Histone acetyltransferase KAT6A, winged helix 2, GST fusion (KAT6A, Homo sapiens, UniProt Q92794, residues 85-181)
Technique: protein binding microarray
Form: double-stranded DNA, one strand shown
Matrix: in vitro
Tested at: not given
Setting: 8-mer, flanks averaged, mean of 2 arrays, mostly near background
Reference: not given
Direction: higher = stronger binding
Quantity: E-score
Construct (chain): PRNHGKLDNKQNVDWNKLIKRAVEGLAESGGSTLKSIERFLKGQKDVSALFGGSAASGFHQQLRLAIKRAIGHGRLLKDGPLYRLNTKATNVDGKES
GACCAGTA: -0.0599
ACCGGCTC: 0.152
CGGAAAAC: -0.0363
GGTGTGAC: -0.0554
ACGCTCCG: -0.0206
AGGCGCTG: -0.115
CAGCAGCC: -0.0499
GAGCTGCA: -0.00242
AGAAATCA: 0.0464
CAGACTCA: -0.0585
GATGCAAA: -0.0225

Sample 3
Target: RING finger protein unkempt homolog, zinc fingers 1-6, GST-SBP tag (UNK, Homo sapiens, UniProt Q9C0B0, residues 30-357)
UniProt Q9C0B0, sequence (30-357, looked up): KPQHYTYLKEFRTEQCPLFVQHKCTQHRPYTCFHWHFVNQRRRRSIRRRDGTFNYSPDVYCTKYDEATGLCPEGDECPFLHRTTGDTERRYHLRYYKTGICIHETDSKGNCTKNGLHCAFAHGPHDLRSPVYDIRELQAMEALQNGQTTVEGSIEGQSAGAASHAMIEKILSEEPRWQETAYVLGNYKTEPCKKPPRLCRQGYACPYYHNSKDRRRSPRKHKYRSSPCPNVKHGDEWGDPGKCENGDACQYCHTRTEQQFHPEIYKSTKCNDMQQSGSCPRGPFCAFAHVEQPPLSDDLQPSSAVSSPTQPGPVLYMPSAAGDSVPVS
Technique: RNA Bind-n-Seq
Form: RNA
Matrix: in vitro
Tested at: not given
Setting: RNA with constant flanks, human-mouse chimeric sites, ends assumed
Reference: input RNA pool
Direction: higher = stronger binding
Quantity: bound/input enrichment
All sequences stand within: GGGAGUUCUACAGUCCGACGAUC … CAACAGAGGAUUGAGCAUCA
AGUGUGCAGGAAUUCAUGACCUUUACAAGUCAACUGAUUGUGGAACGCUCAUCGAAAGGCAGCAGAGCUUCUGUCAAAGAACAAGAGUAUCUUUGCCACGUCUACGUCCGGAGCGACAGU: 0.0815 ratio
CCCCAAUACCAUUUGCAGGUCUGGAACUGCACUCUCUUUUUUAAAAAACAUGUAUACAUUUUAGGGCUGUAGACUUAUUUUCCUGGUUUUGUUUUUCUUGCUUAUUCUUUGAGCACAGAA: 2.13 ratio
UUAAUCCCCUUUACUGCUCCCCCACUUCUCAUGGUAAUAACAAAGUCUUAUAUCCCCGUCCUAGCUUUCACUCAGAUGGCUUAUGGAGCCAGUUUCCUAGCUUUCUUGGGAGGGAUCAGA: 0.29 ratio
AUCAAAUACUUUGGGGAUAUUAUUAGCGUGGGACAGAGAUUGUUGCAAGGAGCUCGGAUCUUAGGGAUUCCAGUUAUCAUAACGGAACAAUACCCCAAAGGACUUGGCAGCACCGUUCAA: 0.336 ratio
GCCACCAGAUCCCAGAAACAUGACCCUUGCUGCCUACAAAGAGAAGAUGAAGGAGCUCCCGCUGGUGUCCUUGUUCUGCUCCUGCUUCUUGUCUGAUCCCCUGAAUAAAUCAUCCUACAA: 0.371 ratio

Sample 4
Target: Centromere-binding protein 1, full length, N-terminal tag (CBF1, Saccharomyces cerevisiae, UniProt P17106, residues 1-351)
UniProt P17106, sequence (whole entry, looked up): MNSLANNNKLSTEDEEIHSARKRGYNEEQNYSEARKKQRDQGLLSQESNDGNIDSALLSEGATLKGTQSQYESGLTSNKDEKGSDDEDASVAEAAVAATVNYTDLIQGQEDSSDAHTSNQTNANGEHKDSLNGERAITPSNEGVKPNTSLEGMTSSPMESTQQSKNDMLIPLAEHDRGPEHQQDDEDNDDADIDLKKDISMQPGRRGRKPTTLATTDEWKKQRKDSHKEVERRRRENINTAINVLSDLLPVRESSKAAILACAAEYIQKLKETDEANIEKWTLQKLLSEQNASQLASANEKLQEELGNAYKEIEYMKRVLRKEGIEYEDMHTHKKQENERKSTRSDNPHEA
Technique: protein-binding microarray
Form: double-stranded DNA, one strand shown
Matrix: in vitro
Tested at: 0.8 µM
Setting: whole 60-bp probe, no competitor
Direction: higher = stronger binding
Quantity: fluorescence intensity
All sequences stand within: … GTCTTGATTCGCTTGACGCTGCTG
CTATTTTCAAATCCATCCGTGACTTCTATGTCTTTC: 716 a.u.
GAAGTACGTTTTAACAACGTGAAGCACAACTGTTAG: 622 a.u.
TGTACGAAGCTATGTAACATGACTATAGTAGTTAGG: 624 a.u.
GAAATCACTTTCCGTTGCGTGACTATTGATGATTAG: 748 a.u.
GAACGGTCATTCTACATCATGAATATTAATTTATAG: 547 a.u.
GAATAATATATTGGTAGTGTGACTACTAGTTGTTAG: 910 a.u.
CCTAACTACTATAACGTGAAAATATAGCTTCGTACA: 563 a.u.
CTAGAGTAGTAGGTTCACGTTATGTCTCTCTTTTTC: 545 a.u.
CCTAACTACTATATCCACGTGATATAGCTTCGTACA: 10700 a.u.
GAACAGATAAACTCCCACGTTTATTATCTTTTGTAG: 564 a.u.
CTATAGGAACAGTGTCATGAAATAATGTTTTGTTTC: 527 a.u.

Sample 5
Target: ABI1, truncated, D143A, DHFR fusion (Arabidopsis thaliana)
Technique: DHFR PCA, deep sequencing
Matrix: yeast
Setting: methotrexate growth selection, single substitutions
Together with: (+)-ABA 4.8 µM
Reference: wild-type fitted maximum
Direction: higher = stronger binding
Quantity: relative binding score
Parent: PYL1, truncated, DHFR fusion (Arabidopsis thaliana); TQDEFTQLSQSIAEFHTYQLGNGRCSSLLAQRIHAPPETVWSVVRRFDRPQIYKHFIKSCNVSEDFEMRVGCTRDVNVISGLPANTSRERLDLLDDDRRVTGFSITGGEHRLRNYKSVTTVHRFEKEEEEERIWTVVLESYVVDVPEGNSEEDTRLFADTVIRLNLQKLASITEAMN
Y18P: 64.1%
R49N: 59.1%
L20Y: 64.3%
K126H: 82.6%
L112R: -6.95%
R69C: 64%
I162N: 14.7%
T73C: 68.3%
F15E: -16.8%
L20I: 72%

Sample 6
Target: Sal-like protein 4, full length isoform A (SALL4, Homo sapiens, UniProt Q9UJQ4, residues 1-1053)
UniProt Q9UJQ4, sequence (whole entry, looked up): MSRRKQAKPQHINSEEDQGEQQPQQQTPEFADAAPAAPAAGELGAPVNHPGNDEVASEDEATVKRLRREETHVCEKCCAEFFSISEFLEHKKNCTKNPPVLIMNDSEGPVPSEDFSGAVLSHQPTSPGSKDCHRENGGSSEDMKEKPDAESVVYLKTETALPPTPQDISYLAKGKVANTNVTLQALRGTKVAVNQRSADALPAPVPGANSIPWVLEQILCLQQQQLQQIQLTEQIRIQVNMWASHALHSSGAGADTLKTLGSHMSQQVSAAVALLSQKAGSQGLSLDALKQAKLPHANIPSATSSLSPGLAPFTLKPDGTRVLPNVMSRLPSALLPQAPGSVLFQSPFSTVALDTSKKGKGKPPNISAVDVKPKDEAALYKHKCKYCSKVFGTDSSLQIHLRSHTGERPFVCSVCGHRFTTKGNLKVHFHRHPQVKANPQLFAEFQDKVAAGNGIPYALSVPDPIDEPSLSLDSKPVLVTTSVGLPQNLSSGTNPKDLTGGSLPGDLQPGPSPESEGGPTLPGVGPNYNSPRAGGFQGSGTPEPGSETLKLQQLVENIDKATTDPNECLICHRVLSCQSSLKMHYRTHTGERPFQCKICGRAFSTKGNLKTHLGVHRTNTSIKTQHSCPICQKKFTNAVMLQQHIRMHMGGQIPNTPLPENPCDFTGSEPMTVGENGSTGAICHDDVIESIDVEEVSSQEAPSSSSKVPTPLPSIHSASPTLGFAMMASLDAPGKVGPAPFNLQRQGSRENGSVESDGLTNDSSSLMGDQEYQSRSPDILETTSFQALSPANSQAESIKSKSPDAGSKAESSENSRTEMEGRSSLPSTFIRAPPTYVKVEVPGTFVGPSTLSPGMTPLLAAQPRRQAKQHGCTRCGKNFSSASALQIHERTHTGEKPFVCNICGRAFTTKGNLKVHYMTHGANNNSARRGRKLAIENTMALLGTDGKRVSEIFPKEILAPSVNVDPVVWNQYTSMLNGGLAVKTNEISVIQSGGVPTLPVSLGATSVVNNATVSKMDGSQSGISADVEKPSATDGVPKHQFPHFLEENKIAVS
Technique: universal PBM
Form: double-stranded DNA, one strand shown
Matrix: in vitro
Tested at: 600 nM
Setting: 8-mer, flanks averaged, mean of replicates
Direction: higher = stronger binding
Quantity: E-score
GTCTAGGA: 0.024
AGTTTGTG: -0.00781
AACAAGCT: 0.0107
CCTTGCCG: -0.281
ACTTGTGA: 0.16
ACTTTGTG: 0.0635
AGTAAGGG: 0.00639
GATTTCAA: 0.13
TATCTAGA: 0.151
AGGATCTC: -0.112
CATGTGAG: -0.0675
GAAAGCAC: -0.0737
AGAGACGC: -0.198
GACGGGTA: -0.238
TGGGAGAA: 0.0569
CAAACTAC: 0.0394

Sample 7
Target: RNA binding protein fox-1 homolog 2, RRM domain, GST-SBP tag (RBFOX2, Homo sapiens, UniProt O43251-10, residues 100-194)
Technique: RNA Bind-n-Seq
Form: RNA
Matrix: in vitro
Tested at: 365 nM
Setting: natural RNA segment, single round, ends assumed
Reference: no-protein control
Direction: higher = stronger binding
Quantity: RBNS enrichment (R)
All sequences stand within: GGGAGUUCUACAGUCCGACGAUC … UGGAAUUCUCGGGUGCCAA
Target sequence (chain): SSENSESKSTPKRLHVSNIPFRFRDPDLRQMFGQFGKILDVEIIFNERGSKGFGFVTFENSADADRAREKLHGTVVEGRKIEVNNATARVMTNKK
GCUCUAAUAAAAAUGAAAGCUCUCUGACAAGAAAUAGUUCUGGAUGGUUUGAAGAUCUGCGGGGAAAAAUAAGUGUGCACCUGAGACCUUCAGUUAGUCUUUUAUUUAUU: 0.965
ACUGUUUCUUUGUUACUCGUUGGUACAGCUGUUUGUUUUACUUGCACAUUUGUACAUAUACUUAAUGUUUUCAAGUGCCUUAAUUGUUUAAAAUCUCUGGCUUCAAAGUU: 0.396
ACCUUACUCCUUUCCUUUCCCCUGAACAAACCUGCUAAUCCCACUAAUUCAGGAAUUUGAGUAGAGAUGGGGAACAAGAACCCAGAUGCUGUCCCCUCACCCCCUCUCCU: 0.453
GUUUUACAUUUAAAUUCAGGCAGUGUUAAUAUGCCAAGGUAGGGAAUGUGCCUUUUUCAGAGUUGGCCAGGAGCUCCUGGCUGGGACACGGAGAGGCAGGUGUGGCGUAA: 0.361
AACAUACUGUUAAUAUUUAAUUAAAAGCAUUGUUUUUUCUAGAGCUGAGAAAUAGAAGCUAAAGAAUAAUUAGAGCUGAAAGGCUUCCUUAUAUCAAACCAUCUAACAUU: 0.376
CAGGAAGCUUACACAUUUUCUCAGAGGCCUUUGUGCUCCCACCUCUUCUACCCUCCCCCUCUUCUUUCCCAUUUUAAAAAAGAAAAGAAGGAAAAAGAAAAAAGGGGCAA: 0.235
GGGUGGCUUCCUCGAACGAUUAAACAAACUAGGUGCUUGUAUAUAAUUUAUUACAGUUUACUCUACUGCAUUUCUGUCAAGUUGAAAUGCAUGCCCUUCAGGGGAAGACU: 0.99
CUCAGAAGAGCUCAUGUCCUGGGACGGUGGUGCUGGAGCCUGGGCGAGCCUUCCACUCUCCCACGGUCUGGUGUCUCUAUGGAAAUAAAGUCUUAGUAUUGCAUUGGUGU: 1.31
CAUCAUUGAAUAAGUCUUAUUCAGUCAUCGGUGAGGUUAAUGCACUAAUCAUGGAUUUUUUGAACAUGUUAUUGCAGUGAUUCUCAAAUUAACUGUAUUGGUGUAAGAGU: 0.305
GACCAGCCCUGCAGCCCCCACUCAGCCGGCAGCCAGAUGGCCCCGCAAGGCCUCCAGGGAUGGCCCCUAGCCACAGGCCCUGGCUGAGGUCUCUGGGUCGGUCAGUGACA: 0.377
UCCUCCUUACUCUAAGCUAAAUCUAGGUGAGGUUUCCCCUUAGGGAGCCCAGCUAUUUACAAAGUACACACGAGGGAGCAGGCUGGUCAUUGACUUCGGGCUGGACCGUU: 0.206
CACGACCCUUCCCACCCCAUUCACUGGGCUGGCUCCGACCUUUCCCAGGGCUAGCCUUCACUGCCCUAGUGGCAGCGCUUCCCAGGGGUGCUCUCUGGCUCCCAGAUGUC: 0.391
